Published values gathered from unrelated publications.
Every numbered part comes from another study and shows a few of its results, in no order.

Sample 1
Target: Interferon regulatory factor 5, full length, phosphomimetic (IRF5, Homo sapiens, UniProt Q13568-2, residues 1-514, S451D/S453D/S456D/S462D)
Method: protein-binding microarray
Molecule type: double-stranded DNA, one strand shown
Sample: in vitro
Tested at: 940 nM top
Notes: 60-bp whole probe
With: salmon DNA 0.4 mg/ml
Relative to: random background probes
Reading: higher = stronger binding
All sequences stand within: GCCTAGCAC … GTCTTGATTCGCTTGACGCTGCTG
Strand	fitted relative affinity [z-score]
GACGGTATTGGGACTGGGGACGTGCTA	0.244
TTAGGTTTTCTTTTCCTTTAGTGCTAG	1.09
TTAGGTCTCGAACTGGGTTAGTGCTAG	0.608
CACGGTTTCGACTTTCGGGACGTGCTA	7.41
CCCAAGATTGCCGTTTCCTAAGTGCTA	0.321
GACGGTACCCTACTGCTGACGTGCTAG	-0.213
GACGGACTGCTTTTGCTGACGTGCTAG	-0.235
GGATGTTGCAAATATTGCTAGGTGCTA	-0.152
AGCAGGGGCGCAGGTAGGTGGTGCTAG	-0.696
TCCTCTTTCACTGCTCCCCAAGTGCTA	2.2
TTAAGACTGCTTCTCCTTTAGTGCTAG	-0.0746
TTAGGTATCGATACTGGGTTAGTGCTA	9.56
GACGGACGGGGACTGGGGACGTGCTAG	-0.347
TCAGGAAACCGGAAAGGCACTGTGCTA	-0.418
TTCTGGTTCCCATTCCAGGGGTGCTAG	1.09
GACGACCTGGGGACTGGAGACGTGCTA	-0.256
TCAATTTTCAGTATTACACTGTGCTAG	1.1
GACGGACTGCTTATCCTGCCGTGCTAG	-0.425
TCACCTTTGTTTTTTTCACTGTGCTAG	1.48
TTAGATTTGAGTTTCGATTAGTGCTAG	8.61
TTCGGTTTCGGTTCCGGTTAGTGCTAG	15.2

Sample 2
Target: RING finger protein unkempt homolog, zinc fingers 1-6, GST-SBP tag (UNK, Homo sapiens, UniProt Q9C0B0, residues 30-357)
Method: RNA Bind-n-Seq
Molecule type: RNA
Sample: in vitro
Tested at: not given
Notes: RNA with constant flanks, human and mouse sites, ends assumed
Relative to: input RNA pool
Reading: higher = stronger binding
Target sequence (chain): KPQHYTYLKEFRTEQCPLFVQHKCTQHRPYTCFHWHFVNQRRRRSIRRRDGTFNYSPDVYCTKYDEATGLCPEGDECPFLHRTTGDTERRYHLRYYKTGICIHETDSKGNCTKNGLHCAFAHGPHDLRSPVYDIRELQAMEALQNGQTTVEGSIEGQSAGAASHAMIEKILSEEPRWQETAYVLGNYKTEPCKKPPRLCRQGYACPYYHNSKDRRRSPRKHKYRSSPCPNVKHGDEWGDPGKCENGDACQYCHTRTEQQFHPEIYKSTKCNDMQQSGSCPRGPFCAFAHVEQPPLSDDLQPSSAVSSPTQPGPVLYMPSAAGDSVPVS
Strand	bound/input enrichment
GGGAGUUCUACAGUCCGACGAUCGAGCCAGAGGAAGAAGAAGAGGAGAAGGAAGGGAAUGCCACUGUGAGUUUCUCACAGGCCCUAGUAGAGUUCACCAGCAAUGGAAACCUUUUUACCAGCAUGUCCUACAGCUCUGAUUCUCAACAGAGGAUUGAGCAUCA	0.216 ratio
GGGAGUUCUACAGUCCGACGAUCAAUCUCUGGGAACACUAUUAUAAAGAUGGACAAGCCAUUAUUUUUGUCAUUGAUAGUAGUGAUAAGUUAAGAAUGGUUGUGGCCAAAGAAGAGCUUGAUACCCUUCUGAAUCACCCAGAUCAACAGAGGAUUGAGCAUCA	0.156 ratio
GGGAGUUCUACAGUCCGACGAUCUUACUCUAACCUGUUGUCCUCCACAUUCUAUUGUCCUAAUUGUACUGUUUUCUGAUUUGUAUUUAUGUCUUGAGACAGUAACUUUUUGAAUAAAAAUAAACCUACAGUAUGUUGUAUGUUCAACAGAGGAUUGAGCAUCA	0.193 ratio
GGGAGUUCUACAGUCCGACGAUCACUUCUGUCUUCUCCUGUUUACCUGCAUCUUUGGAAUGCUUGACUGACACCAGUGAUUCCUGCUUCCUUCAGUUUGAGUCCUGUCCAAUGGAGGAGAGCUGGUUCAUCACUCCUCCCCCACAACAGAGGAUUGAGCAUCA	0.14 ratio
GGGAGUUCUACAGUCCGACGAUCGAUGUAUAUUUUGAAUAUGAAGAAAAAAUAAUGAGCAAAACUACUCUGGAUAAAUCUCUUCUAGAUAUAAUAUCAGACCCUGAUGCAGGAACUCCAGAAGAUAAAAUGAGGUUGUUUCUUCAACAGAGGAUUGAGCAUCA	0.492 ratio
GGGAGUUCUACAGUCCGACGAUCUAGCGCAACUUCCGGUAUUGUUGCAAGAUGGCCGCGCCCAGUGAUGGAUUCAAGCCUCGUGAACGAAGCGGUGGGGAGCAGGCACAGGACUGGGAUGCUCUGCCACCCAAGCGGCCCCGACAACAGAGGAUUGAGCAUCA	0.171 ratio
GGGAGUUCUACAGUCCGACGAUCCAUGCAAUCUUGUAAUGUGGCCUGAAAACAAGCUAACUGUAUUAGAAACUAUUCAAAAACUAGGUAUUUUUAGUGACCUGUAGGCAGUGGCAAAUACAGACAUGUGAACCUUGAAUACAUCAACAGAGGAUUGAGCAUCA	2.08 ratio
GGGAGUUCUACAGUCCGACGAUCCAGGCCACGGAGAGCGAGGCCGGUGACAUGGACCUGAGUGGACUGCCAGAGACGGCGGUUGACUCUGAGGAUGACGAUGAUGAGGAAGACAUCGAGAGAGCAUCAGACCCUCUGAUGAGCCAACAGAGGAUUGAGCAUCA	0.0557 ratio
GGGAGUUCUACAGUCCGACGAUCACCUAGCCAGUCCAACCUCCACCAUGGGGGCCGUGACCUGGCUACUGCCAGGCAUCUUUCUAGCUUUGUUUGCCCUCACUCCCGAAGGUGGGGUCCUCAAGAAAAUCAUCAGGCACAAGCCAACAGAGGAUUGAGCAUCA	0.192 ratio
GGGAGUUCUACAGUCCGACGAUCGCUGCCAUGGCUGCAAGACCUCAUUCAAUUGAUGGGAGAGUAGUUGAGCCAAAACGUGCUGUAGCAAGAGAGGAAUCUGGAAAACCAGGGGCUCAUGUAACUGUGAAGAAGCUGUUUGUUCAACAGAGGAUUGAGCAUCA	0.21 ratio
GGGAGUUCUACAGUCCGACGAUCCUGCUCCUCUCCUGGGCGGCGGGGAUGGGAGGUCAGUAUGGGAAUCCUUUAAAUAAAUAUAUCAGACAUUAUGAAGGAUUAUCUUACAAUGUGGAUUCAUUACACCAAAAACACCAGCGUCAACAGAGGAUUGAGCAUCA	0.231 ratio

Sample 3
Target: RNA binding protein fox-1 homolog 2, RRM domain, GST-SBP tag (RBFOX2, Homo sapiens, UniProt O43251-10, residues 100-194)
Method: RNA Bind-n-Seq
Molecule type: RNA
Sample: in vitro
Tested at: 365 nM
Notes: natural RNA segment, single round, ends assumed
Relative to: no-protein control
Reading: higher = stronger binding
Construct (chain): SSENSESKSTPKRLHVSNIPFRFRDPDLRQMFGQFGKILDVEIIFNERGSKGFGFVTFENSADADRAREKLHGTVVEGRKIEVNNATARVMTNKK
Strand	RBNS enrichment (R)
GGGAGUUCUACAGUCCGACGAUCUUCUUUUACAAAUCAUAAUUAGUACUUUUGGUUAUUACCGUCUUCAGUGUUAGCCCAAAGAUUCUGAGGUUUAGAAAAAAAUUAUGUAAGAUCUGAACAUCAGUUUGCAGUGGAAUUCUCGGGUGCCAA	0.349
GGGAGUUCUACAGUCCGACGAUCAGGAGAGGUGGGAAAGGACACACUGCCACGAGAAACCACCCGACGGCUGGAGAGGUGGCUCAGUGGUUAAAGGCACUCACUGCUCUUUCCAAAGGACCUGGUUUGAUUCCUGGAAUUCUCGGGUGCCAA	0.497
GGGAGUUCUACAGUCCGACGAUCACUUGGGCCUGAUGCUUCUCUAACUGGCAGAAGCAGGCUCUACCUGGACCUCCAGCUGGGAGGUCAUCCUCCCUCUAGCUUGUAUGUCCUGUACUUUGCAACCCCUAAGCUGGAAUUCUCGGGUGCCAA	0.91
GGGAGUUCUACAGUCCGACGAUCGUGACCUUUUGUCCUUUACCUGAUUGGCACUUCGCAGUCUAUCUCCCUGGGUAGCAGACGGCUGCUGCCCUUCUCUGGGCAUGUUCUGAAUGUUUACACUGGUACCUUCUUGGAAUUCUCGGGUGCCAA	3.24
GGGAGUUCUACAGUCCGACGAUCUGUGACAGUCUGUGGGGACUGUCCCAGUGCCUUUGUGAUGACCUAAACUGCACUGAGUCUCUUGCCAAGAAGCAAUGCUUUUUUUGUGAAGGCCACUCAGAGCAUCUUGCUGGAAUUCUCGGGUGCCAA	0.421
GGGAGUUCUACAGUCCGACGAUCCAGAAAGCAAGGGGUGCCUAAAUCUAGACUUGGGGUCCACACCGGGCAGCGGGGUUGCAACCCAGCACCUGGUAGGCUCCAUUUCUUCCCAAGCCCGAGCAGAGGGUCAUUGGAAUUCUCGGGUGCCAA	0.393
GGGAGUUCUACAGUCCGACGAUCACACUUGUGAACGUGUGAACGUUAACACUGUAGUUGAUAGAUCUUAAGCUGCUAAUUGUUGAGAGAGAUUUAAAUUUAUGUUCUGUCUGGUCGCUGCAGAUUCUCAGCAGUGGAAUUCUCGGGUGCCAA	0.552
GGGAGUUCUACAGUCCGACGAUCAAGUCUUUUAUUUGUGGCAAUUUUGCCUUAGUAGGCGCUUGGCGUAGUUUCUAUUUUAUAGAAUAUUUAGUCUGAGAAGUUAAAGAAACUAGACCUAGGAUCUCAAAAGUUGGAAUUCUCGGGUGCCAA	0.4
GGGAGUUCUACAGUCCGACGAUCAAGUUUUAACUUUAAUACAGCUCAGUAAAUGGCUUCUUCUAGAAUGUAAAGUUAUGUAUUUAAAGUUGUAUCUUGACACAGGAAAUGGGAAAAAACUUAAAAAUUAAUAUUGGAAUUCUCGGGUGCCAA	1.07
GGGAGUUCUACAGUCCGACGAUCACUGGGAAGAGCAUUAGCCAAGAACUUGUCUCUUUGAUCUGUUUCGUUAAGCUGAACCAGUGUCUUUACAUUUCAUUUGUACUUCAAAAAAUAUGCUAUUGUUUAGACUUUGGAAUUCUCGGGUGCCAA	0.288
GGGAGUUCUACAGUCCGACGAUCGCAGAGACAUAGUACCGAGCUGGGCUCCCGCCUUCAUGGAGCUCGUCCAGAAGCCCUGGCACAGAAGUUCUUGGCCAGUCUCAUGUCACAUGUCACGAUGUCAGAUUCAAUGGAAUUCUCGGGUGCCAA	0.277
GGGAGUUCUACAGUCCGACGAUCGUUUGGACCUCUAGGGAGGAGGGUUUUGGUCAUACUCUCCUUAUCCUCGUGCACAGAAAUGCUCAGGGUCCCCAUGUGCCUGUUGUUCAGCCCUCUCUCUUGUUCCCUUUUGGAAUUCUCGGGUGCCAA	0.998

Sample 4
Target: Sal-like protein 4, full length isoform B (SALL4, Homo sapiens, UniProt Q9UJQ4-2, residues 1-616)
Method: universal PBM
Molecule type: double-stranded DNA, one strand shown
Sample: in vitro
Tested at: not given
Notes: 8-mer, flanks averaged, mean of replicates
Reading: higher = stronger binding
Strand	E-score
TCACCGCA	-0.121
ACAGTTTC	-0.0115
AGCAATAT	0.384
ATTCTTGG	0.12
ACAGATGA	0.109
ATAGTGCG	0.0216
AGGCTGCA	-0.0185
AGCTCGGG	-0.29
AGGAGGCG	-0.244
CCGTCCAG	-0.258
GAAGAGCA	-0.0141
CCCAACCC	-0.0329
AATTACTC	0.297
CTGGCTCC	-0.291
GCCGGTAC	-0.273
CAGTGCCC	-0.292
GTCCACGA	-0.216
GAAATGAC	0.157
GGTGGATA	0.0211

Some of these lines once more (sample 4):
Strand	E-score
GGTGGATA	0.0211
AGGAGGCG	-0.244
GTCCACGA	-0.216
AGCAATAT	0.384
CAGTGCCC	-0.292
AGCTCGGG	-0.29
